# Assay results from different studies.
# A part holds a random share of what one study measured.

# Study 1
# Target: RING finger protein unkempt homolog, zinc fingers 1-6, GST-SBP tag (UNK, Homo sapiens, UniProt Q9C0B0, residues 30-357)
# UniProt Q9C0B0, sequence (30-357, looked up): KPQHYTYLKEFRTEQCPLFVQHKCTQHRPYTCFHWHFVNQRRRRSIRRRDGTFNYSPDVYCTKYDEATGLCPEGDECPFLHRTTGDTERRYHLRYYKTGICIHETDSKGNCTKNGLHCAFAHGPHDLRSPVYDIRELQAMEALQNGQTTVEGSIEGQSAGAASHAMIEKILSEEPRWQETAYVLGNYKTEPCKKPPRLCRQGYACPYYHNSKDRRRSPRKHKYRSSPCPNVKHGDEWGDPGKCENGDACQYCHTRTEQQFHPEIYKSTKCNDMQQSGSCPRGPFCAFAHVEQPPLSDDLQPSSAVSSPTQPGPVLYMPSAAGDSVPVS
# Method: RNA Bind-n-Seq
# Form: RNA
# Matrix: in vitro
# Tested at: not given
# Setting: RNA with constant flanks, human-mouse chimeric sites, ends assumed
# Reference: input RNA pool
# Reading: higher = stronger binding
# Shared flanks, not repeated: GGGAGUUCUACAGUCCGACGAUC … CAACAGAGGAUUGAGCAUCA
Oligonucleotide,bound/input enrichment [ratio]
GUGACUGGUGUUAAGAUUUCCCCUCAGCAAAGAAGUGCAGUAGUCACAAUAAUCCCUUCUGUGGUGAGUGCCAGUCAGAUUGUGGAGCUGGUCCCAGACCUCAGUUUAGAUACUGGGACU,0.479
UACUCAACUUUCUUGCCACAUUUUGAAUUCCAAGAUGUUAUUCCUCCAGAUGACUUCCUAACGAGUGAUGAAGAGCAAGAUUUGGUUUUAUUUGGAAGUUUGAGAGGACAAGUUGUUGGA,0.17
AAAGUGGACUAUGGUGAGUACAUGGAUAAAAACAAUGUGAGGCGGCAAGCAACAACAAUCAUAGCUGAUAACAUUAUAUUUCUGAGUGACCAGACAAAAGAAAAGGCGUAGAAAGGAUGA,2.07
GUCAACAGCUGCCUCAACCCCAUCCUCUACGCCUUCCUGGAUGAGAACUUCAAGGCCUGCUUCCGCAAGUUCUGCUGUGCUUCUGCCCUGCACCGGGACGUGCAGGUGUCUGACCGCGUG,0.283
CGGAAGUUCUUGAUUUAUCAUUUUUCUCUUUUCUUUCUUUCCUUUAGGAAAAGCCUAAAGAUUAGGUUGUAAGAAAAGAAAAUAGAAUGUUUCGAAGACCUGUGUUACAGGUAUUUCGUC,0.339
GUGACUGGUGUUAAGAUUUCCCCUCAGAAAAGAACUGUAGCAGUGACCAUAAUUCCAUCUGUGGUGAGUGCCAGUCAGAUUGUGGAGCUGGUCCCAGACCUCAGUUUAGACAUGGGAACU,0.281
GGUGGGGUGGUCAUUGCGCCAAUUGAGGCUGAUUUUCAUGAGUCGCCCAUUCAGAACUCGUGUAGGGUUGACAAUGUGGGGGGGUGGGGGAUCCAGCUUAUUCUUUUAUUUUCAAGUCCA,0.841
AAAGUGGACUAUGGCGAGUACAUGGAUAAAAACAAUGUGAGGCGACAAGCAACAACAAUCAUAGCUGAUAACAUUAUAUUUCUGAGUGACCAGACAAAAGAAAAGGCAUAGAACGGAUGA,1.94

# Study 2
# Target: Histone acetyltransferase KAT6A, winged helix 1, GST fusion (KAT6A, Homo sapiens, UniProt Q92794, residues 1-85)
# Method: protein binding microarray
# Form: double-stranded DNA, one strand shown
# Matrix: in vitro
# Tested at: not given
# Setting: 8-mer, flanks averaged, mean of 2 arrays, mostly near background
# Reference: not given
# Reading: higher = stronger binding
# Residues (chain): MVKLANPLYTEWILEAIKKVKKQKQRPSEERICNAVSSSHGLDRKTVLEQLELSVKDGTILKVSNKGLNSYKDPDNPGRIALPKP
Oligonucleotide,E-score
AGGAAGGA,-0.204
ACAGCTCG,-0.0278
TGAGCCAA,-0.201
CCGCGGGA,0.445
CATCTGGA,-0.0926
ACAGTCAC,-0.132
GGGATCAA,-0.061
CGTAGTCC,0.152
GTCGCCAC,0.109
CTTGGTCA,-0.2
GAAGAAAC,-0.191
AGGGATGC,-0.113
AGAACGCT,-0.0569
AACGTGGG,-0.228
CCGGAAAA,0.197
ATTAGCTG,-0.119
TACTTAGA,-0.126
CATCGCCG,0.382
CGCCCTGC,0.226
ATGGACCG,0.00688
GCTGCAAC,0.104
CCCACCTC,-0.0988
TCGATACA,-0.162
AGGTAGGA,-0.148

# Study 3
# Target: Interferon regulatory factor 5, full length, phosphomimetic (IRF5, Homo sapiens, UniProt Q13568-2, residues 1-514, K96S/S451D/S453D/S456D/S462D)
# Method: protein-binding microarray
# Form: double-stranded DNA, one strand shown
# Matrix: in vitro
# Tested at: 250 nM
# Setting: 60-bp whole probe
# Together with: salmon DNA 0.4 mg/ml
# Reference: random background probes
# Reading: higher = stronger binding
# Shared flanks, not repeated: GCCTAGCAC … GTCTTGATTCGCTTGACGCTGCTG
Oligonucleotide,log fluorescence
TGCTTTCTCCCAAGTCTTGTTGTGCTA,3.01 z-score
GACGGTATCCTTATCCTGGCGTGCTAG,0.056 z-score
TTAGATTTAGGGTTTCGATTAGTGCTA,4.69 z-score
GACGGCATCGGACTGGGGACGTGCTAG,-0.616 z-score
ATAGGTTTCGGGTTTCGGTTAGTGCTA,9.69 z-score
TTAGATATCAGTATCGATCAGTGCTAG,7.16 z-score
TTAGATATCAGTTTCGATTCGTGCTAG,9.72 z-score
GACGAACTGAGACGGGAGACGTGCTAG,-0.382 z-score
GACGGTATCGACTATCGTGACGTGCTA,2.91 z-score
TTAGGTCTCGGTCGCGGTTAGTGCTAG,0.45 z-score
GAAGGTTTCCTTTTCCTGACGTGCTAG,0.916 z-score
TTAGGTTTCGACTTACGGTTAGTGCTA,7.91 z-score
TTAGGACTGGGGACTAGGTTAGTGCTA,-0.494 z-score
TATTATATATTTATGTATACGTGCTAG,1.09 z-score
TTAGGTTTCGGATTGGGTTAGTGCTAG,6.71 z-score
TCATTCCTCTCACCTCGGACTGTGCTA,0.576 z-score
TCAAGTCTCAAAATTAGACTGTGCTAG,0.165 z-score
TGCTTTCCAATTCTCTTTTCGTGCTAG,1.68 z-score
GTAGGTTTCGGACTGGGTTAGTGCTAG,4.86 z-score

# Study 4
# Target: Fragile X messenger ribonucleoprotein 1, C-terminal low-complexity region (Fmr1, Mus musculus, UniProt P35922)
# Method: RNA Bind-n-Seq
# Form: RNA
# Matrix: in vitro
# Tested at: 200 nM
# Setting: whole 134-nt RNA, ends assumed
# Together with: 150 mM LiCl
# Reference: input library
# Reading: higher = stronger binding
# Library: 7-deaza-guanosine replaces G
# Shared flanks, not repeated: GGGAGUUCUACAGUCCGACGAUC … UGGAAUUCUCGGGUGUCAAGG
Oligonucleotide,log2 enrichment
GCAGGAAGUAAAAACAAAUGGAAAUGCUUCGGAUAGUGGCAGGGGUGGGGGUCGCUAAGGAAAGGGUGGGAUGGGAGUGGGUAAAGAGUU,1.17
UAACUUUAGAGGAGGAUCUGAUGGAUAUGGCAGUGGACGUGGAUUUGGGGAUGGCUAUAAUGGGUAUGGAGGAGGACCUGGAGGUGGAAA,0.796
CUGUGCUACACAUCGUAUGUACCGAAUCGGGGAAAAAAAGGGAAAAAAAGGGAAAAAAAGGGAAAGUAUUAUGUUACGCCGUUCGGAUCU,0.388
UAACUUUAGAGGAGGAUCUGAUGGAUAUGGCAGUGGACGUGGAUUUGGGGAUGGCUAUAAUGGGUCUGGAGGAGGACCUGGAGGUGGCAA,-0.483
GCAGGAAGUAAAAACAAAUGGAAAUGCUUCGGAUAGUGGCAGGGGUGGGGGUUGCUAAGGAAGGGGUGGGAUGGGAGUGGGUAAAGAGUU,1.1
AAGUCCUGUGCUACACAUCGUAUGUACCGAAUCGGGAAAAGGGAAAAGGAAAAGGGAAAGUAUUAUGUUACGCCGUUCGGAUCUGCACUU,-0.618
CUCAAGUCCUGUGCUACACAUCGUAUGUACCGAAUCGGGUUGGUUGGUUGGGGAAAGUAUUAUGUUACGCCGUUCGGAUCUGCACUUCCA,-0.375
CCUGUGCUACACAUCGUAUGUACCGAAUCGGGGUUUUUGGGGUUUGGGGAAAAAAAGGGGAAAGUAUUAUGUUACGCCGUUCGGAUCUGC,-1.2
